Measured values collected from several papers.
Every numbered part comes from another study and shows a few of its results, in no order. Substitutions count along the parent as printed.

Block 1
Target: CCNB3, cyclin fold, Cln2 fusion (human)
Technique: yeast growth competition, sequencing
Medium: yeast
Setting: strong parent motif
Reference: not given
Reading: higher = stronger binding
Starting sequence: RBL2 docking peptide (human); STTRRRLFVENDS; partner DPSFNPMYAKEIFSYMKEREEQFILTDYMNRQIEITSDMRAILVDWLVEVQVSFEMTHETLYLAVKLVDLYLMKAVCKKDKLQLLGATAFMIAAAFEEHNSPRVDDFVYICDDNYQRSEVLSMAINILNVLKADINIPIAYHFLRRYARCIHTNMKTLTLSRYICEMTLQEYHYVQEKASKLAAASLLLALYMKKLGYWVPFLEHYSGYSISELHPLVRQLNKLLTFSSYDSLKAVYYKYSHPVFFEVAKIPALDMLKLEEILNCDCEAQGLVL
Change	normalised enrichment score
L7F	0.417
L7Q	-0.0693
L7D	0.255
E10G	0.4
T3C	2.34
V9K	0.692
L7E	0.248
E10A	0.455
R5C	0.432
S1E	0.402
N11W	0.616
D12V	0.675
T2P	1.08
E10L	0.0517

Block 2
Target: ABI1, truncated, D143A, DHFR fusion (Arabidopsis thaliana)
Technique: DHFR PCA, deep sequencing
Medium: yeast
Setting: methotrexate growth selection, single substitutions
With: (+)-ABA 0.0091 µM
Reference: wild-type fitted maximum
Reading: higher = stronger binding
Starting sequence: PYL1, truncated, DHFR fusion (Arabidopsis thaliana); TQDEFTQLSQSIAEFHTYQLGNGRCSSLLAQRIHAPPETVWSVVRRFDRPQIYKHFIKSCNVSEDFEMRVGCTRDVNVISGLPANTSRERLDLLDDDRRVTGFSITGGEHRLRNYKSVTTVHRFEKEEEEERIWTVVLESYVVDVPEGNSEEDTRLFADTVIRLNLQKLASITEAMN
Change	relative binding score [%]
R74M	0.128
E128R	13.3
S9K	68.1
S27L	1.32
R155N	-5.16
T1V	40.4
F15V	2.55
A35N	-5.42
N61I	47.5
V118A	15.8
S87N	9.52
E109I	-7.46
S104C	-4.09
N77R	50.8
P83V	5.91

Block 3
Target: Ras GTPase-activating protein-binding protein 1, C-terminal RGG region (G3BP1, Homo sapiens, UniProt Q13283)
UniProt Q13283, sequence (whole entry, looked up): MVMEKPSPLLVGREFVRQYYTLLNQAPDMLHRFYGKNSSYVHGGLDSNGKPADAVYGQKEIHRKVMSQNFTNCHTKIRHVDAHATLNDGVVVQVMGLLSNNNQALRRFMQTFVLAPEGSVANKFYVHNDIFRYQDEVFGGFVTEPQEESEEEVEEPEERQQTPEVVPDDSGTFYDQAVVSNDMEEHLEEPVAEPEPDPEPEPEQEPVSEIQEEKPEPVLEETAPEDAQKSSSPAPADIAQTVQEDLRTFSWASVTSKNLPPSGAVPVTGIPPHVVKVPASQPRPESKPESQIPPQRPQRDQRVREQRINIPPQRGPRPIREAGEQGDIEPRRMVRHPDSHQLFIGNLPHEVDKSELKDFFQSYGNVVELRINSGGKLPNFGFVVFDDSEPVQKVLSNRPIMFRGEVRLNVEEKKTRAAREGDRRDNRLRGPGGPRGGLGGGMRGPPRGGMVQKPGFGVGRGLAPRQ
Technique: RNA Bind-n-Seq
Form: RNA
Medium: in vitro
Tested at: 1 µM
Setting: whole 134-nt RNA, ends assumed
With: 150 mM KCl
Reference: input library
Reading: higher = stronger binding
Constant ends, left off below: GGGAGUUCUACAGUCCGACGAUC … UGGAAUUCUCGGGUGUCAAGG
Sequence	log2 enrichment
AGUUACUCAGUUCAUUUUGGAUAACUACAUUGAAAGAGGAAAAGGAUCUGCUUGCAGAAUAGUUUGUACUCAGCCAAGAAGAAUUAGUGC	-2.5
UCAAGUCCUGUGCUACACAUCGUAUGUACCGAAUCGGGGAAGGGAAGGGAAGGGGAAAGUAUUAUGUUACGCCGUUCGGAUCUGCACUUC	2.32
UCCUGUGCUACACAUCGUAUGUACCGAAUCGGGGUUUUUGGGGAAAAAGGGGAAAGGGGAAAGUAUUAUGUUACGCCGUUCGGAUCUGCA	2.73
CUCAAGUCCUGUGCUACACAUCGUAUGUACCGAAUCGGUUUUUGGAAAGGAGGAAAGUAUUAUGUUACGCCGUUCGGAUCUGCACUUCCA	-1.29
GUCCUGUGCUACACAUCGUAUGUACCGAAUCGGUUUUUGGUUUUUUUGGUUUUUUUGGAAAGUAUUAUGUUACGCCGUUCGGAUCUGCAC	-1.48
UCCUGUGCUACACAUCGUAUGUACCGAAUCGGGGUUUUUUGGGUUUUUUGGUUUUUUGGGAAAGUAUUAUGUUACGCCGUUCGGAUCUGC	-0.755
UCCUGUGCUACACAUCGUAUGUACCGAAUCGGGGUUUUUUUGGGGAAAGGGGAAAGGGGAAAGUAUUAUGUUACGCCGUUCGGAUCUGCA	1.99
UCAAGUCCUGUGCUACACAUCGUAUGUACCGAAUCGGGUGGGUGGGUUUUUGGGAAAGUAUUAUGUUACGCCGUUCGGAUCUGCACUUCC	1.4
CUCAAGUCCUGUGCUACACAUCGUAUGUACCGAAUCGGUUUUUUUGGUGGAGGAAAGUAUUAUGUUACGCCGUUCGGAUCUGCACUUCCA	-1.23
UUGGCGCAUGCGCCUAAAGCUGACGGGUUUGAAAUGGCUUCGAUGUUAGCCGGGACCCGACUCAGGUGAAGGUCUGGUCCCCGUAGUUGG	-1.27
CACAGACAACACGCACCCACACAGACACAGAGGGAAGGGGUUGGGAUGGGGACAGGAUGCACAGCAGGGCGGGGUAGGACCCCAGCCCCU	-0.995
CCUGUGCUACACAUCGUAUGUACCGAAUCGGUUUUUUUGGUUUUUUUGGGUUUUUUUGGGGAAAGUAUUAUGUUACGCCGUUCGGAUCUG	-1.95

Block 4
Target: Histone acetyltransferase KAT6A, winged helix 2, GST fusion (KAT6A, Homo sapiens, UniProt Q92794, residues 85-181)
Technique: protein binding microarray
Form: double-stranded DNA, one strand shown
Medium: in vitro
Tested at: not given
Setting: 8-mer, flanks averaged, mean of 2 arrays, mostly near background
Reference: not given
Reading: higher = stronger binding
Construct (chain): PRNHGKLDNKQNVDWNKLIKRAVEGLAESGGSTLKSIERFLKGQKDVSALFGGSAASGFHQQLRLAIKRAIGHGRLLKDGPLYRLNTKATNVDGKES
Sequence	E-score
TCGACAGA	-0.0889
AGGACGCG	0.0486
AAGAGTAC	0.0814
AACACTGG	-0.179
AAAACATG	-0.15
GCCCAGTA	0.0695
CATCAAAG	0.0498
GTAAGAGA	-0.132
ACACGGCT	0.041
GGTGCTAA	0.00762
AAAGGCCG	0.0591
CCAGAAGG	0.0537
TACCGGGA	-0.0335
GTAGTTGA	0.0857
CGAGTTAA	0.144
AGATCCAT	-0.102
AGCAGCGC	-0.0347
ATGGTGAG	-0.151
CTACAAAG	-0.0164
ACAATCAA	0.000135
CAACCCCA	0.0371
AACCGGAG	0.156
ACGGCTCT	-0.0422
ATGGATAC	0.0615
CCCTTAGA	-0.07

Block 5
Target: RING finger protein unkempt homolog, zinc fingers 1-6, SBP tag (UNK, Homo sapiens, UniProt Q9C0B0, residues 30-357)
Technique: RNA Bind-n-Seq
Form: RNA
Medium: in vitro
Tested at: 100 nM
Setting: RNA with constant flanks, vertebrate orthologous sites, ends assumed
Reference: input RNA pool
Reading: higher = stronger binding
Constant ends, left off below: GGGAGUUCUACAGUCCGACGAUC … CAACAGAGGAUUGAGCAUCA
Sequence	bound/input enrichment [ratio]
AAUUACACUAAUACUGAAGUUAAAAUGAAAAGGAUAUCCAAGGUGAUGAUAAAGUGUGUGUUGGUAGUUACUAAAAAAAAACCUUAGCUGUUAUUGCCUUGUAUUUCUAUCCCUUGUUUC	0.475
AUCCCUCAGUGACAGUAUGCCAUCUGUAGCAGAUUCUCACUCUAGUCAUUUUUCUGAAUUUAGUUGUUCUGACCUAGAAAGCAUGAAAACUUCUUGUAGUCAUGGUUCUAGUGAUUAUCA	2.16
CUCUUUUUACCUUUUUACUGCCUCAGUGAGGUAAAGAUUCCUCUUGGACAUUUUUUCCAGUAUUGCAUCCUAUGGUCCUAAUAGCUUUUUUUAAAAUUUCAGAUAUUAUCAUUUUACUAG	1.74
UUACUGUUAAGCACUGUGUUCCAGACCGUGUCUGAUUUUAGUGUAACCUAGGAGAUUUUAUAGUUUUAUUUUAAUGAAAUCCUGCUUGACGCAGAGCAGCGGGGAGAGCAGUGUCCUCCA	2.19
UCAUUGUACUGCAAAAAUCAUCCUCGUUUUAAAUUAGCCACAGUGAUAACUAGUCUGCACUAGUAGAAUCAUUUACCUUUUAAGUUAUCUGCUUUGUCUGAUACCUGAAACAUAUCAAAA	0.349
AAUCAGUAGAAUUACAUAAUACUAAAGUUGCAGUUAAAAGGAUAUCCAAGUAUGUGUUGGUAGUUACUAAAAGAAUUAUAGCUGUUAUUGCCUUGUAUUUAUAGCCCUUGUUUCAGGUUU	0.645
AGAAAAUUUUAACCAUGAAUCUGAAGGUAGAAAUACAGGUCCGUGGUUAUCUUCCUCACUUAGAAAUAGAUGCACACCUUUGUUCUCUAGAAGGAGAAGAGAGGGAAGAGAUGAAUCUUC	0.96
GAUUUGGACCCAGGAGCCAAACCAGGGAGCUAGCAAAAGUAAAGCAGGCGUGUAAAAGGAGAGUCCUGUGCAGCUGCCCAACAACAGUGCCACCACUAGCAGCUGUGUUAAAGUAUUCGU	0.463
UACUGUAUGUAGAGAAAACAUUUUCAUUGACCCCGUUGUGAAAUUCCCUAGCAAUUUAUUUAGAAUCUUCAUUUUUCUCAUUCAAGCUCAUUGUAUUAGUUAUUUUUAGCCCAUAAUUAA	5.63
CUACUCUAAACAACUCAGGGCAGUAUUCUCGCUAUCCUUACAGUAACCUAAAUCAGGGAUUAGUUAACAAUACAGGGAUGAAUCAAAAUUUAGGCCUUACAAAUAAUACUCCAAUGAAUC	1.61
CACAUCUGGUGAUAUUUGGCCUGGCCUUUCAGCCUAUGAUAACAGUCCCAGAUCUCCUCAUAGUCCUUCACCGAUCGCUACACCACCUAGUCAGAGUUCGUCUUGCUCUGAUGCCCCCAU	0.757

Block 6
Target: UBE2S UBC core domain (UniProt Q16763)
Technique: yeast two-hybrid
Medium: yeast
Setting: mostly zero background
Reference: not given
Reading: higher = stronger interaction
B1: TRIML1 RING domain (UniProt Q8N9V2); chain LMENLREELTCFICLDYFSSPVTTECGHSFCLVCLLRSWEEHNTPLSCPECWRTLEGPHFQS
B2: SH3RF2 RING domain (UniProt Q8TEC5); chain DDLTLLDLLECPVCFEKLDVTAKVLPCQHTFCKPCLQRVFKAHKELRCPECRTPVFSNIEAL
B3: MKRN1 RING domain (UniProt Q9UHC7); chain FAVQRSKDMVCGICMEVVYEKANPSERRFGILSNCNHTYCLKCIRKWRSAKQFESKIIKSCPECRITSNFVIPSE
B4: TRAF5 RING domain (UniProt O00463); chain FVERLEERYKCAFCHSVLHNPHQTGCGHRFCQHCILSLRELNTVPICPVDKEVIKSQEVFK
B5: TRIM5 RING domain (UniProt Q9C035); chain ILVNVKEEVTCPICLELLTQPLSLDCGHSFCQACLTANHKKSMLDKGESSCPVCRISYQPENIRP
B6: VPS41 RING domain (UniProt P49754); chain KGVLVDEENICESCLSPILPSDAAKPFSVVVFHCRHMFHKECLPMPSMNSAAQFCNICSAKNRGPGSAI
B7: RNF111 RING domain (UniProt Q6ZNA4); chain EGTEEDTEEKCTICLSILEEGEDVRRLPCMHLFHQVCVDQWLITNKKCPICRVDIEAQLPSE
B8: RC3H1 RING domain (UniProt Q5TC82); chain QAPQWTDFLSCPICTQTFDETIRKPISLGCGHTVCKMCLNKLHRKACPFDQTTINTDIELL
B9: TRIM43 RING domain (UniProt Q96BQ3); chain FSHAFQKELTCVICLNYLVDPVTICCGHSFCRPCLCLSWEEAQSPANCPACREPSPKMDFKT
Residues (chain): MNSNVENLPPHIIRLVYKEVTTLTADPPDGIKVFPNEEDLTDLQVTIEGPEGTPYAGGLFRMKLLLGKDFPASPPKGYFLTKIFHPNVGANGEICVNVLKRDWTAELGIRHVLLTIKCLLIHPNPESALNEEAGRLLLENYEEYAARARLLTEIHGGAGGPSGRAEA
Molecule	lacZ reporter activity
B1 (TRIML1 RING domain)	0
B2 (SH3RF2 RING domain)	0
B3 (MKRN1 RING domain)	0
B4 (TRAF5 RING domain)	0
DHGAVGQEMCCPICCSEYVKGEVATELPCHHYFHKPCVSIWLQKSGTCPVCRCMFPPPL (PJA1 RING domain (UniProt Q8NG27))	0
B5 (TRIM5 RING domain)	0
B6 (VPS41 RING domain)	0
B7 (RNF111 RING domain)	0
QVDKAVFHMQSVKCLKCQEQKRAVLPCQHAALCELCAEGSECPICQPGRAHTLQS (UNK RING domain (UniProt Q9C0B0))	0
B8 (RC3H1 RING domain)	0
PAELEVQASECVVCLEREAQMIFLNCGHVCCCQQCCQPLRTCPLCRQDIAQRLRIY (LRSAM1 RING domain (UniProt Q6UWE0))	0
GAAPGPEAAECLVCSELALLVLFSPCQHRTVCEECARRMKKCIRCQVVVSKKLRPD (MIB2 RING domain (UniProt Q96AX9))	0
B9 (TRIM43 RING domain)	0

Some of these lines once more (block 2):
Change	relative binding score [%]
R74M	0.128
S104C	-4.09
P83V	5.91
S27L	1.32
N61I	47.5
S9K	68.1
